Experimental data gathered from unrelated publications.
A part holds a random share of what one study measured.

Sample 1
Species: human
Sample: microsomes or S9
Concentration: 2 µM
Time: 0.5 h
Measurement: remaining compound
COC(=O)c1c(=O)n(Cc2ccc(C(C)(C)C)cc2)c(=O)n2c(-c3ccc(Cl)cc3)c(-c3ccc(Cl)cc3)oc12: 91.3%
CN(C)c1nc2sc(C(=O)NCc3cc4ccccc4[nH]3)cc2s1: 8.86%
COC(=O)c1c(NS(C)(=O)=O)sc2c1CCCC2: 4.25%
Cn1cc(S(=O)(=O)N2CCCCC2)cc1C(=O)Nc1ccc2c(c1)OCCO2: 74%
Clc1ccc2c(c1)nc(-c1cccnc1Cl)n1ncc(Br)c21: > 100%
COC(=O)C1(C(=O)OC)C[C@@H](c2ccccc2)c2ccc(N(C)C)cc2[C@@H]1CC(=O)c1ccccc1: 1.51%
COc1ccc(C)cc1NC(=O)c1cc2ccc3cccnc3c2[nH]1: 7.56%
CCOc1ccc2nc(NC(=O)CN(C)S(=O)(=O)c3ccc(Br)s3)sc2c1: 13.9%
CC1Cc2ccccc2N1S(=O)(=O)c1ccc2c(c1)c(=O)n(CC(=O)N1CCCC1)c(=O)n2C (centres unmarked): 18.1%
Cc1ccc(-c2nc3n(CC(=O)Nc4cccc(F)c4)c4c(c(=O)n3n2)CCC4)cc1: 83.2%
Cn1cc(-c2n[nH]c(=O)c3ccccc23)c2ccccc21: 31.1%
CCCOc1ccccc1-c1nc2nn[nH]c2c(=O)[nH]1: 91%
Cc1nc(C2=C(O)CN(C3CS(=O)(=O)CC3O)C2=N)sc1C (centres unmarked): 68.7%
Cc1cc(NC(=O)C(O)c2cc(Cl)cc(Cl)c2)c[nH]c1=O (centres unmarked): 80.9%
CCn1nccc1-c1cc(C(=O)O)c2ccc(Cl)c(C)c2n1: 94.4%
CCc1nc(-c2ccncc2)cc2c1sc1ccccc12: 0.481%
COc1cc(C2CC(=O)c3cc4c(O)n[nH]c4nc3C2)cc(OC)c1OC (centres unmarked): 94.6%
COC(=O)c1c[nH]c(S(=O)(=O)Cc2csc(Br)c2)n1: > 100%

Sample 2
Target: D(3) dopamine receptor (DRD3, Homo sapiens, UniProt P35462)
Sequence of UniProt P35462 (whole entry, looked up): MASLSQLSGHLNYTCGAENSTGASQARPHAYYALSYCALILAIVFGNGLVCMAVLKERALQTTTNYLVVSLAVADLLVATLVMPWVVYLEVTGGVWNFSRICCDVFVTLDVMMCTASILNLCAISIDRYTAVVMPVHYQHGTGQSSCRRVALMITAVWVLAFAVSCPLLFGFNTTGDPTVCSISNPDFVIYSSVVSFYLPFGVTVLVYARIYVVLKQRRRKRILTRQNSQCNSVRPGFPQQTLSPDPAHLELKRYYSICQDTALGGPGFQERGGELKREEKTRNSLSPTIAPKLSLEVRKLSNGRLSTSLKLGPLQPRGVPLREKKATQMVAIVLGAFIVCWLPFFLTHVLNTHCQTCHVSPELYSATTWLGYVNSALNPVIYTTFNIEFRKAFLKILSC
Observed: binding
Method: radioligand binding
Concentration: 10 µM
Measurement: inhibition
O=C(Nc1ccc(-n2nc(-c3cccnc3)cc2C(F)(F)F)cn1)c1ccc(-c2ccccc2)c(F)c1: 8.38%
COCc1nc2cnc3cc(-c4c(C)noc4C)c(OC[C@H]4CCNC4)cc3c2n1[C@H](C)c1ccccc1: 62.4%
COc1cccc(CNC(=O)c2nc3scc(COCc4ccc(C(=O)O)cc4)c3c(=O)[nH]2)c1: 10.5%
CNC(=O)Nc1ccc2c(c1)[C@]1(CC2)OC(=O)N(CC(=O)N(Cc2ccc(F)cc2)[C@@H](C)C(F)(F)F)C1=O: 57.8%
CC(C)CC(=O)N1CCc2nc(-c3ccc(Br)cc3)nc(N(C)Cc3ccccc3)c2C1: 5.44%
O=C(Nc1cnc(Oc2ccc(F)cc2)nc1)N1CCc2ncccc2[C@@H]1c1ccc(F)cc1: -4.36%
CCCOc1ccc([C@H]2[C@H](C(=O)O)[C@@H](c3ccc4c(c3)OCO4)CN2CC(=O)Nc2c(CC)cccc2CC)cc1: -5.43%
CC(=O)Nc1c(F)cc(C(=O)N[C@H]2CC[C@H](O)CC2)cc1O[C@@H](C)c1ccccc1: 39.1%
CC1=C(C#N)[C@@H](c2ccc3[nH]nc(C)c3c2)C(C#N)=C(c2ccc(Cl)cc2)N1: -18.4%
O=C(O)c1cc(-c2ccc(C3CCNCC3)cc2)c2ccc(-c3ccc(C(F)(F)F)cc3)cc2c1: 65.6%
CS(=O)(=O)NCC[C@H](NC(=O)c1cncc2c1cnn2-c1ccc(F)cc1)c1ccnc(S(C)(=O)=O)c1: -13.8%
O[C@]1(C(F)(F)F)CCCC[C@H]1Nc1ccc(F)cc1: -6.61%
C[C@H](NC(=O)c1cnc2n1[C@](C)(Cc1ccc(C#N)cc1)C(=O)N2c1cc(Cl)c(F)c(Cl)c1)C(=O)NC1(c2ccccn2)CC1: -3.54%
O=C(NC[C@@H]1[C@H]2CN(C(=O)OCc3cc(C(F)(F)F)cc(C(F)(F)F)c3)C[C@@H]12)c1ccc2[nH]nnc2c1: 6.61%
COCCc1ccc(-c2c(C)nc3c(N4CCOCC4)ccnn23)cn1: 24.1%
COc1nc2ccc([C@@](O)(c3ccccc3)C3CCN(C(C)=O)CC3)cc2c(Cl)c1Cc1ccc(-n2cccn2)cc1: -2.36%
CCOC(=O)c1cc2cc(-c3cc(C(=O)NCc4ccc(C(=O)O)cc4)nn3C)ccc2[nH]1: 2.74%
C[C@@]1(Cc2ccc(C#N)cc2)C(=O)N(c2cc(Cl)cc(Cl)c2)c2ncc(C(=O)NC3(c4nc(C5CCC5)no4)CC3)n21: 9.55%
Cc1cc(C)c(-n2ccn3nc(-c4cccnc4)cc23)cc1NC(=O)c1cc(C#N)cc(S(F)(F)(F)(F)F)c1: -5.85%
Cc1c[nH]c2nccc(Oc3c(F)cc(Nc4cc(Cl)nc(N)n4)cc3F)c12: -5.8%
Nc1c(C(=O)NCc2ccc(C(=O)NCCCC3CCCCC3)cc2)cnn1-c1ccccc1: 21.2%
CC(=O)N1CCC(c2ccc(C(=O)NC(=N)N)cc2C(F)(F)F)CC1: -13.4%
COc1cc(-c2cn(C3CCc4ccccc4N(CC(F)(F)F)C3=O)nn2)ccc1-n1ccc(C)n1 (centres unmarked): 22%
C[C@@H]1CN(c2cc(-c3nn(C)c4ccc(OC5(C)CC5)cc34)ncn2)C[C@H](C)O1: 2.71%

Sample 3
Target: Focal adhesion kinase 1 (PTK2, Homo sapiens, UniProt Q05397)
Sequence of UniProt Q05397 (whole entry, looked up): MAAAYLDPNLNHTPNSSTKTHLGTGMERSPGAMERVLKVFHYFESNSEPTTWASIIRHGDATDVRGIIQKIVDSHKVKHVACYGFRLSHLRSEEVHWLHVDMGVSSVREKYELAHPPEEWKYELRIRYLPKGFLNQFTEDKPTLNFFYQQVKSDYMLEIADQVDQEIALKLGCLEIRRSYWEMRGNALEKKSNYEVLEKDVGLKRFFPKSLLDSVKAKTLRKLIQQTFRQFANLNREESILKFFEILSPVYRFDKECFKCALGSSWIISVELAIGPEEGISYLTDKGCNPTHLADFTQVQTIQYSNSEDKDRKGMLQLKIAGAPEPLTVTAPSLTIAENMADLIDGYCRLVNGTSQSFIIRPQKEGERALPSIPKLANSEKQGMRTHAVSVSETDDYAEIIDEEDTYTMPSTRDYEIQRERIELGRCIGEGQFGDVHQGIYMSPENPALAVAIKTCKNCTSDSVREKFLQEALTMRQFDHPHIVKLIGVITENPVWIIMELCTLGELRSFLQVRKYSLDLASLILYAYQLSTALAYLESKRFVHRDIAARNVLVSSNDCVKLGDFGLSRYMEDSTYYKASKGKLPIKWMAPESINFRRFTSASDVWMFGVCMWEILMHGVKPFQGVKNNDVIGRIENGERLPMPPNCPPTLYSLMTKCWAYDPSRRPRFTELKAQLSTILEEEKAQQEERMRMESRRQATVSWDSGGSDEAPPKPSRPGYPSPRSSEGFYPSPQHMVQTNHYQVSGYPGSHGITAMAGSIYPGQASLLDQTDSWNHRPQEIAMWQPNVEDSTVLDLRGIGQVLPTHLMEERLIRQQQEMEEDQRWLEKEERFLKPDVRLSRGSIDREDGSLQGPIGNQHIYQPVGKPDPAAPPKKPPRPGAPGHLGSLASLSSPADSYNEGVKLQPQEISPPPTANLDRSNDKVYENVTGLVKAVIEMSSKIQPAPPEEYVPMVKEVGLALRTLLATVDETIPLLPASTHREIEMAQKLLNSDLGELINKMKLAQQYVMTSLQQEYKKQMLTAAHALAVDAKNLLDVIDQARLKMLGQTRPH
Observed: enzyme activity
Mode: inhibitor
Concentration: 0.5 µM
Reference: control
Measurement: remaining activity
CCOc1cc2ncnc(Nc3cccc(Br)c3)c2cc1OCC: 101%
COc1ccc(-c2cnc3c(-c4ccsc4)cnn3c2)cc1: 93%
CN(C)CCCn1cc(C2=C(c3c[nH]c4ccccc34)C(=O)NC2=O)c2ccccc21: 86.1%
COc1cc2ncnc(N3CCN(C(=O)Nc4ccc(Oc5ccccc5)cc4)CC3)c2cc1OC: 89.4%
CCN1/C(=C/C(C)=O)Sc2ccc(OC)cc21: 108%
Cn1cc(/C=C2\C(=O)Nc3ccc(S(N)(=O)=O)cc32)c2ccccc21: 94.1%
COc1cc2ncc(-c3ccccc3)nc2cc1OC: 100%
Cc1nc(Nc2ncc(C(=O)Nc3c(C)cccc3Cl)s2)cc(N2CCN(CCO)CC2)n1: 103%
Cc1ccc(NC(=O)c2ccc(CN3CCN(C)CC3)cc2)cc1Nc1nccc(-c2cccnc2)n1: 94.9%
COc1cc2ncnc(Nc3ccc(OCc4ccccc4)cc3)c2cc1OC: 105%
CC(C)c1nn(-c2c(Cl)cccc2Cl)c2nc(Cc3ccc(OCCO)cc3)[nH]c(=O)c12: 103%
CC(=O)O/N=C1/C(c2c(O)[nH]c3cc(Br)ccc23)=Nc2ccccc21: 95.9%
CCC(=O)Nc1ccc2ncnc(Nc3cccc(Br)c3)c2c1: 99.4%
O=C(Nc1ccc(Cl)cc1)c1ccccc1NCc1ccncc1: 95.7%
C[S+]([O-])c1ccc(-c2nc(-c3ccncc3)c(-c3ccc(F)cc3)[nH]2)cc1 (centres unmarked): 95.5%
Nc1[nH]nc2nnc(-c3c(-c4ccccc4)nn4ccccc34)cc12: 99.2%
O=c1cc(N2CCOCC2)oc2c1ccc1ccccc12: 108%
O=C1NC(=O)/C(=C/c2ccc3nccnc3c2)S1: 96.5%
Cn1cnc2cc3c(Nc4cccc(Br)c4)ncnc3cc21: 108%
COc1ccc(Cl)cc1NC(=O)Nc1cc(C)nc2ccccc12: 97.3%
CS(=O)(=O)CCNCc1ccc(-c2ccc3ncnc(Nc4ccc(OCc5cccc(F)c5)c(Cl)c4)c3c2)o1: 104%
CC(C)[C@H](CO)Nc1nc(Nc2cccc(Cl)c2)c2ncn(C(C)C)c2n1: 85.9%

Sample 4
Organism: Plasmodium berghei
Mode: inhibitor
Cells: Huh-7
Strain: GFP-expressing, liver stage
Concentration: 10 µM
Time: 24 h
Reference: untreated control
Measurement: infection rate
CC(=O)NS(=O)(=O)c1ccc(N)cc1: 99.4%
O=C1C(CC[S+]([O-])c2ccccc2)C(=O)N(c2ccccc2)N1c1ccccc1 (centres unmarked): 117%
COc1cc(NS(=O)(=O)c2ccc(N)cc2)ncn1: 108%
O=C(O[C@H]1CN2CCC1CC2)N1CCc2ccccc2[C@@H]1c1ccccc1: 85.7%
Nc1nc2[nH]cnc2c(=S)[nH]1: 36.6%
c1ccc(C2CN3CCSC3=N2)cc1 (centres unmarked): 83.3%
CCN(CC)CCNC(=O)c1cc(S(C)(=O)=O)ccc1OC: 83%
CCCc1nc2c(C)cc(-c3nc4ccccc4n3C)cc2n1Cc1ccc(-c2ccccc2C(=O)O)cc1: 80.9%
CCc1nc(N)nc(N)c1-c1ccc(Cl)cc1: 90%
CC(=O)Nc1ccc(OCC(O)CNC(C)C)cc1 (centres unmarked): 107%
O=C(c1ccc(OCCN2CCCCC2)cc1)c1c(-c2ccc(O)cc2)sc2cc(O)ccc12: 62.8%
CC(=O)Nc1ccc(S(=O)(=O)Nc2ccc([N+](=O)[O-])cc2)cc1: 96.8%
CC(=O)N(c1onc(C)c1C)S(=O)(=O)c1ccc(N)cc1: 112%
CN[C@@H]1[C@H](O)[C@H](NC)[C@H]2O[C@@]3(O)C(=O)C[C@@H](C)O[C@H]3O[C@@H]2[C@H]1O: 105%
CCC(C)(C)C(=O)O[C@H]1C[C@@H](C)C=C2C=C[C@H](C)[C@H](CC[C@@H]3C[C@@H](O)CC(=O)O3)[C@H]21: 55.5%
NC(=O)N/N=C/c1ccc([N+](=O)[O-])o1: 55.8%
